Measured values gathered from unrelated publications.
± gives the spread as reported.
ABO G235S/G268A/L266M/R176G: Histo-blood group ABO system transferase (ABO, Homo sapiens, UniProt P16442, G235S/G268A/L266M/R176G)
ESR1: Estrogen receptor (ESR1, Homo sapiens, UniProt P03372)
T1: DNA aptamer four adenosine sites; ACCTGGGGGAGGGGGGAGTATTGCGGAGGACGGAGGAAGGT

For `C=C1CN(S(=O)(=O)c2ccc(C)cc2)CCCN(Cc2ccccc2)CCCN(S(=O)(=O)c2ccc(C)cc2)C1`, “protein level ratio” read 3.48 (Sortilin (Homo sapiens, UniProt Q99523); SILAC mass spectrometry; SUP-T1, crude membrane fraction; 10 µM, 17 h, reverse labelling; reference: DMSO over compound).
`CCC(=C(c1ccc(O)cc1)c1ccc(OCCN(C)CCOCCOCCOCCN(C)CCOc2ccc(C(=C(CC)c3ccccc3)c3ccc(O)cc3)cc2)cc1)c1ccccc1` (mixture of isomers): “relative binding affinity” 9.57 ± 1.8% (Estrogen receptor beta (ESR2, Homo sapiens, UniProt Q92731); radioligand competition binding; concentration not given, Z-E/E isomer form, together with: [3H]estradiol tracer; reference: estradiol).
With `NC(=O)C1CCNC(=O)C(CCCNC(=O)c2cnccn2)NC(=O)C(CC2CCCCC2)NC(=O)C(CC2CC2)NC(=O)C=CC(=O)N1` (stereo not drawn) the enrichment factor was 2 (MAP kinase-activated protein kinase 2 (MAPKAPK2, Homo sapiens, UniProt P49137); DNA-templated library selection; one selection round).
`CC(C)CC(NC(=O)C(NC(=O)NC(C(=O)O)C(C)C)C1CCNC(=N)N1)C(=O)NCCCNC(C(=O)O)C(OC1OC(CN)C(O)C1O)C1OC(n2ccc(=O)[nH]c2=O)C(O)C1O` (stereo not drawn) has a ΔH of -7.2 ± 0.2 kcal/mol (Phospho-N-acetylmuramoyl-pentapeptide-transferase (mraY, Aquifex aeolicus, UniProt O66465, K70A); ITC; K70A mutant).
Under pIC50, `Cc1ccc(N2C(=O)c3ccccc3NC23C(=O)N(C)c2ccc(Br)cc23)cc1` (stereo not drawn) is recorded as “inactive” (Aminopeptidase N (ANPEP, Homo sapiens, UniProt P15144); enzyme activity, inhibitor; HEK293 overexpressing aminopeptidase N, membranes; together with: L-Leu-pNA).
`O=C1c2ccc(O)cc2OC(Oc2ccc(-c3coc4cc(O)ccc4c3=O)cc2)C1(O)c1ccc(O)cc1` (stereo not drawn) has a Vmax of 25.6 ± 1.3 µmol/min/mg (PRXC1A (Armoracia rusticana, UniProt P00433); oxidation, substrate).
`CC(C)C[C@H](NC(=O)[C@H](CC(C)C)NC(=O)[C@H](CC(N)=O)NC(=O)[C@H](Cc1c[nH]c2ccccc12)NC(=O)[C@H](Cc1ccc(O)cc1)NC(=O)[C@H](CCC(=O)O)NC(=O)[C@H](C)NC(=O)[C@@H](N)Cc1ccccc1)C(=O)O` has a ΔΔG of 4.98 kcal/mol (Protein Mdm4 (MDM4, Homo sapiens, UniProt O15151); SPR competition binding; reference: PMI).
For `Nc1c2nc(N3CCCCC3)n3c2nc[n+]1[C@@H]1O[C@H](COP(=O)(O)OP(=O)([O-])OC[C@H]2O[C@@H]3[C@H](O)[C@@H]2O)[C@@H](O)[C@H]1O`, activity read “inactive” (cADPR receptor, sea urchin; Ca2+ release; sea urchin egg homogenate; concentration not given).
Under “inverse agonist response”, `CCCn1c(=O)c2[nH]c(-c3ccc(OCC(=O)NCCNC(=O)CCCCCNC(=O)COc4ccc(/C=C/C5=[N+]6C(=Cc7ccc(-c8cccs8)n7[B-]6(F)F)C=C5)cc4)cc3)nc2n(CCC)c1=O` is recorded as 1.32 ± 0.04 fold increase (Adenosine receptor A1 (ADORA1, Homo sapiens, UniProt P30542); CRE reporter gene, inverse agonist; CHO-A1; concentration not given, together with: forskolin; reference: forskolin alone).
`CNCC=C(C)C=CC=CC=CC1=C(C)CCCC1(C)C` — result for “mature over immature ratio”: about 1.6 (Rhodopsin (RHO, Homo sapiens, UniProt P08100, P23H); immunoblot; 661W rod opsin P23H; 2.5 µM; reference: mature over immature).
With `CC(C)(C)CCN1C[C@@H]2[C@@H](CNC(=O)c3cc(Cl)cc(Cl)c3)[C@@H]2C1.Cl` the reversal potential was 60.9 ± 1.31 mV (Voltage-dependent L-type calcium channel subunit alpha-1F (Homo sapiens, UniProt O60840); calcium current, whole-cell patch clamp; HEK-293T cells; 50 nM, holding potential -50 mV, together with: β2 and α2δ subunits).
`CCCCCCCCO[C@@H]1O[C@H](CO)[C@H](O)[C@H](O)[C@H]1O[C@@H]1O[C@@H](C)[C@@H](O)[C@@H](O)[C@@H]1O` gave a koff of 3100 ± 300 s⁻¹ (ABO G235S/G268A/L266M/R176G; methyl-TROSY NMR titration lineshape analysis; apo enzyme).
`CC(=O)N(CC(=O)N(C)[C@@H](C)C(=O)N(Cc1c[nH]c2cc(Cl)ccc12)[C@@H](C)C(=O)N(C)[C@@H](C)C(=O)N(CCC(C)(C)C)[C@@H](C)C(=O)N1CCNCC1)Cc1ccccc1`: “binding entropy term (-TΔS)” -1.09 kcal/mol (E3 ubiquitin-protein ligase Mdm2, N-terminal domain 17-125 (MDM2, Homo sapiens, UniProt Q00987); isothermal titration calorimetry; PBS; concentration not given, 25 °C).
For `Cc1cc(N2CC[C@@](C#N)(C3(C)CC3)C2=O)cc(C(=O)NCc2cc(F)cc(-c3cnn(C)c3)c2)n1`, the ΔTm was 17 °C (Bifunctional glutamate/proline--tRNA ligase (EPRS1, Homo sapiens, UniProt P07814); thermal stability).
The koff of `C=CCCCCCCO[C@@H]1O[C@H](CO)[C@@H](O[C@@H]2O[C@H](CO)[C@H](O)[C@H](O)[C@H]2O[C@@H]2O[C@@H](C)[C@@H](O)[C@@H](O)[C@@H]2O)[C@H](O)[C@H]1O` is reported as 340 ± 10 s⁻¹ (ABO G235S/G268A/L266M/R176G; methyl-TROSY NMR titration lineshape analysis; apo enzyme).
For `C[C@H](CCC(=O)N[C@@H](CCC(=O)Nc1ccc(O)cc1)C(=O)O)[C@H]1CC[C@H]2[C@@H]3[C@H](O)C[C@@H]4C[C@H](O)CC[C@]4(C)[C@H]3CC[C@]12C`, the Jmax was 0.437 (Ileal sodium/bile acid cotransporter (SLC10A2, Homo sapiens, UniProt Q12908); transport, substrate; ASBT-MDCK cells; unit not given; reference: taurocholate Jmax).
`CCCC[C@H](NC(C)=O)C(=O)N[C@@H](CO)C(=O)N[C@H](C(=O)N1CCC[C@H]1C(=O)N[C@]1(C)CCCCCCC=CCCC[C@@](C)(C(=O)N[C@@H](Cc2ccccc2)C(=O)N[C@@H](CCCCN)C(=O)N[C@@H](CCCNC(=N)N)C(=O)N[C@@H](CC(C)C)C(=O)N[C@@H](CCC(N)=O)C(N)=O)NC(=O)[C@H](CCCNC(=N)N)NC(=O)[C@H](CCCC)NC(=O)[C@H](CC(C)C)NC(=O)[C@H](CCCNC(=N)N)NC(=O)[C@H](CCCNC(=N)N)NC(=O)[C@H](CCCNC(=N)N)NC1=O)[C@@H](C)O` — result for p53 deubiquitination: “no effect” (Ubiquitin carboxyl-terminal hydrolase 7 (USP7, Homo sapiens, UniProt Q93009); 30 µM, together with: USP7 1 µM).
Under activity class, `N#Cc1cccc(/C=C/C(=O)c2ccc(O)cc2)c1` is recorded as “inactive” (Protein disulfide-isomerase A6 (PDIA6, Homo sapiens, UniProt Q15084); enzyme activity, PDI reductase; 40 µM, protein 1 µM).
`Nc1ncnc2c1ncn2[C@@H]1O[C@H](CO)[C@@H](O)[C@H]1O` gave a Kd of 9.8 µM (T1, DNA aptamer four adenosine sites; ITC; pH 7.6, 25 °C, Na+ 100 mM, one-site model).
For `CCCCOc1ccc(C(=O)OCC[N+]2(C)CC=CCC2)cc1` (stereo not drawn), the dissociation half-time was 0.4 ± 0.1 h (Muscarinic acetylcholine receptor M1 (CHRM1, Homo sapiens, UniProt P11229); recovery of [3H]NMS binding after washing; membranes; 100 µM).
The koff of `Nc1nc2cnc(C(=O)N3CCOC[C@@H]3c3ccc(C(F)(F)F)cc3)cc2c2c1COC2` is reported as 7.78e-06 s⁻¹ (Protein arginine N-methyltransferase 5, MTA-bound (PRMT5, Homo sapiens, UniProt O14744); SPR).
For `N[C@@H](Cc1ccc(O)c(I)c1)C(=O)O`, “Kd ratio, M41K over wild type” read 22 fold (Iodotyrosine deiodinase (IYD, Thermotoga neapolitana, UniProt B9K712, M41K); binding, FMN fluorescence quenching; 25 °C).
`CC(C)NC(=O)NC1CC=C(c2cc3c(Nc4cc5ncsc5cc4F)ncnc3s2)CC1` (racemic) has a remaining activity of 107 ± 3% (Receptor-interacting serine/threonine-protein kinase 1 (RIPK1, Homo sapiens, UniProt Q13546); enzyme activity; 1 µM; reference: untreated).
With `CSCC[C@H](NC(=O)[C@H](Cc1c[nH]c2ccccc12)NC(=O)[C@@H](NC(=O)[C@@H](NC(=O)[C@@H](NC(=O)[C@H](C)NC(=O)[C@@H](NC(=O)[C@H](C)NC(=O)[C@H](CCCCN)NC(=O)[C@H](CCCCN)NC(=O)[C@@H](NC(=O)[C@H](CC(N)=O)NC(=O)[C@H](CCC(=O)O)NC(=O)[C@@H](N)CCSC)C(C)C)[C@@H](C)O)[C@@H](C)O)[C@@H](C)O)[C@@H](C)O)C(=O)N[C@H](C(=O)N1CCC[C@H]1C(=O)N[C@H](C(=O)N[C@@H](CCCNC(=N)N)C(=O)N[C@@H](CCC(N)=O)C(=O)O)[C@@H](C)O)C(C)C` the ΔΔG° was 0.4 kcal/mol (Recombining binding protein suppressor of hairless (Rbpj, Mus musculus, UniProt P31266); isothermal titration calorimetry; 25 °C; reference: wild-type peptide).
Under “number of binding sites”, `O=C(O[C@@H]1Cc2c(O)cc(O)cc2O[C@@H]1c1cc(O)c(O)c(O)c1)c1cc(O)c(O)c(O)c1` is recorded as 0.984 (Pancreatic triacylglycerol lipase (PNLIP, Sus scrofa, UniProt P00591); fluorescence titration; concentration not given, pH 8.0).
`CC(C)CCSc1nc2c([nH]1)c(=S)n(C)c(=O)n2C` gave a reporter activity of 65% (ESR1; reporter gene, ERE luciferase; T47D-KBluc; 10 µM, 24 h, together with: estradiol 5 nM; reference: maximal luciferase activity).
`CC(Cc1ccc(Cl)cc1)=C(c1ccc(Cl)cc1)c1ccc(OCCN(C)C)cc1` has a fold activation of 1.09 ± 0.05 fold (ESR1; reporter gene, agonist, yeast estrogen screen; 1 µM; reference: DMSO).

Some of these lines once more:
`CC(=O)N(CC(=O)N(C)[C@@H](C)C(=O)N(Cc1c[nH]c2cc(Cl)ccc12)[C@@H](C)C(=O)N(C)[C@@H](C)C(=O)N(CCC(C)(C)C)[C@@H](C)C(=O)N1CCNCC1)Cc1ccccc1`: “binding entropy term (-TΔS)” -1.09 kcal/mol (E3 ubiquitin-protein ligase Mdm2, N-terminal domain 17-125 (MDM2, Homo sapiens, UniProt Q00987); isothermal titration calorimetry; PBS; concentration not given, 25 °C).
For `Cc1cc(N2CC[C@@](C#N)(C3(C)CC3)C2=O)cc(C(=O)NCc2cc(F)cc(-c3cnn(C)c3)c2)n1`, the ΔTm was 17 °C (Bifunctional glutamate/proline--tRNA ligase (EPRS1, Homo sapiens, UniProt P07814); thermal stability).
